Assay results pooled from the literature.
A part holds a random share of what one study measured.

Sample 1
Target: RING finger protein unkempt homolog, zinc fingers 1-6, GST-SBP tag (UNK, Homo sapiens, UniProt Q9C0B0, residues 30-357)
UniProt Q9C0B0, sequence (30-357, looked up): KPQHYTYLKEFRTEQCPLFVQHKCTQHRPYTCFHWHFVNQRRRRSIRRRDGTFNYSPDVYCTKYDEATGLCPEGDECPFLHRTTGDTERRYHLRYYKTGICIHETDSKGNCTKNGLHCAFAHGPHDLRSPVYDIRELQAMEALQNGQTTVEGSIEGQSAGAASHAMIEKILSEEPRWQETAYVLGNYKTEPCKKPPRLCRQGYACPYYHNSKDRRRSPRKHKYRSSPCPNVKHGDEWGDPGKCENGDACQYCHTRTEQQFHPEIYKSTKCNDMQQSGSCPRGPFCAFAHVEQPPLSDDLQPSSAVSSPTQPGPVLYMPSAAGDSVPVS
Technique: RNA Bind-n-Seq
Molecule type: RNA
Matrix: in vitro
Tested at: not given
Setting: RNA with constant flanks, ends assumed
Reference: input RNA pool
Reading: higher = stronger binding
Constant ends, left off below: GGGAGUUCUACAGUCCGACGAUC … CAACAGAGGAUUGAGCAUCA
Strand	bound/input enrichment [ratio]
AUCAUCUGCAUCGUCACGUACGUGCUGAACUUCCUUCUUCUCAUUAUCAACUACAAACGACCCGUUUACUUGAACGAGGCCUGGAAGCGGCAGCUGCAACCCAAGCAGGACUGACGCCCG	0.109
UCUGCCACCCAGCAGAAGAAAAACACCAAACUCUCUAGCAAAACGACUGCUAAGUUAUCCACCCGUGCUAAAAGAAUUCAGAAGGAGCUAGCAGAGAUAACCCUUGAUCCUCCUCCUAAC	0.285
GAGGGCAGGGCUCACAGACUCCAAAAGCUGACAAAGUCCCAUCACUUACACAAACAGUGAUUCCGAACAACUUCGAAAAAUCAGGCGGCGAAGUCCCCACGAUGACACCGAGUCCUUUAC	0.128
GGAUUUGGAGAUGCAGUGGAUAAUAGUAAUUGCUGGCAGCCUGUUAUCGACUACAUUGACCGUAAAUUUGAAGAUUACUUAAAUGCAGAAUCUCGAGUGAACAGACGUCAGAUGCCUGAU	0.267
GACAACAAAAUUAUAGAAUGCAAAUUUGAGAACAAUAGCUGGGUCUUCAUGAGACAGAGGACCGACAAAAGUUUCCCAAAUGCCUACAACACAGCCAUGGCUGUGUGCAAUAGCAUCUCG	1.13
CUAUGUAAGUUUCAUUUAGAAAGACAUGCAUUUAUAUUUUGUUUCUGUAAUAUUCUACUGCCGGUGAAAUCUUUUCAAAAAUCAAGAGACUGGGUAGAUAAGAAUAUAUGAAUGACUAAU	0.437
GUGCAGCUAAGGAAACAGCAUGCAGUCAUGAUUGUUAGAUGAGAGACACUAAAGUACAGUCCGCUGCCAACAAGUAUUAAGGAUUACUCUGCAAAACUUCCCAGUUGCCAGCUGCCAGAG	0.371
CUGGGAAUUGGGCCAGGACCAGUAGAACUAAUUGAUGAAGUUACUGGCCACCUAAAACUUUACCCGAUAAGCUUUUGCUUGAUGGAGAUUCUGUCCGAAGACUAUGGAGCCUGUCAGUAA	0.207
AAUUUUCCUUUCAUAUAAAAACUGAUCUCCCCUCCUCCCAUAAAUAUUUUUACUUCAAGGACCCGGACCAGUUUGUUUUGGGCCCUUAUGUGAAAAUUUGUCUCGUUUAAGAGGCAUCUU	0.233
CCACGGAUGUUCAAUAUCAUCUCAGAUUCUCCAUCUCCUAUUGCUGCAAGAACACUGAUAUCCGUGGCUAAAUCUGUGCAGAACUUAGCAAAUCUUGUGGAAUUUGGAGCUAAGGAGCCC	0.169
GAAGAUGCGGCAUCCUAUGUUAGAAAGGUUAUACCAAAAGAUUACAAGACAAUGGCCGCUUCCGCCAAAGCCAUUGAAAAGAAUGUGCUGUUUUCACAUCUUGAUGAUAAUGAGAGAAGU	0.495

Sample 2
Target: Interferon regulatory factor 7, full length, phosphomimetic (IRF7, Homo sapiens, UniProt Q92985, residues 1-503, S471D/S472D/S475D/S476D/S477D/S483D/S484D/S487D)
Technique: protein-binding microarray
Molecule type: double-stranded DNA, one strand shown
Matrix: in vitro
Tested at: 2200 nM top
Setting: 60-bp whole probe
Added: salmon DNA 0.4 mg/ml
Reference: random background probes
Reading: higher = stronger binding
Constant ends, left off below: GCCTAGCAC … GTCTTGATTCGCTTGACGCTGCTG
Target sequence (chain): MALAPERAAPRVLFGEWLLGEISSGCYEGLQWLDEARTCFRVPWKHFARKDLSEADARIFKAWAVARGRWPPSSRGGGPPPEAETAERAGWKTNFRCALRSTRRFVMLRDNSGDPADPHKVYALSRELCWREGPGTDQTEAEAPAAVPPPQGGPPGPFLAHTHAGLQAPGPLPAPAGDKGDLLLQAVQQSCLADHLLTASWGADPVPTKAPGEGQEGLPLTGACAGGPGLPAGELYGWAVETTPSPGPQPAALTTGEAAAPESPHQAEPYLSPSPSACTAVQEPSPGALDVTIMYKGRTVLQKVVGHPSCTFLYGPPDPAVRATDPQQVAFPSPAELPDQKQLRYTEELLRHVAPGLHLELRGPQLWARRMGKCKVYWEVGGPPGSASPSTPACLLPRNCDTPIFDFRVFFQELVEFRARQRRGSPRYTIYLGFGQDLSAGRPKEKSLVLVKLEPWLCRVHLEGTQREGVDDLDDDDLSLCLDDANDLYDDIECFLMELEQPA
Strand	fitted relative affinity [z-score]
GACGGTATCGGTTTCGCGACGTGCTAG	2.47
TTAGTACTGGGGACTGGATTAGTGCTA	-0.124
AACAATATATATATTATATAGTGCTAG	-0.228
TTAGGTTTCGACTTTCCGTTAGTGCTA	7.77
TACGATTCCAGTTTCGAGACGTGCTAG	4.28
TTAGGTTTCGGGACTGGGTTTGTGCTA	3.31
TTAGATCTCAGTATCGATTGGTGCTAG	0.423
TTAGATATCGGGTATGGATTAGTGCTA	0.0811
TTACGTCTCCTTCTCCTTTAGTGCTAG	2.58
TGAGATTTCGGGTTTCGATTAGTGCTA	6.11
TACGGTTTCGGGTATCGGGACGTGCTA	6.39
GACCAGGGGCCACAGCCTCAGTGCTAG	-1.83
CTAGGTTTCGGGACTGGGTTAGTGCTA	3.14
GGCTGTTTGGTTCTGATCCTGTGCTAG	0.542
GACGATATTAGTATCGAGACGTGCTAG	0.158
TTAGGTCGCGGTTTCGGTTAGTGCTAG	5.84
TTAGGTATCCTTCTCCTCTAGTGCTAG	1.16
TTAGATTCCAGACTGGATTAGTGCTAG	0.0193
GACGATATTAGACTGGAGACGTGCTAG	-0.0894
TTAGAATTGAGTCTCGATTAGTGCTAG	-0.376
TTATGTATCCTACTGCTTTAGTGCTAG	1.44
GACGGACTGGGTTTCGGCACGTGCTAG	-0.0849
TTAGATTTTGGGTATCGATTAGTGCTA	0.481
GACGAACTGGGGAATGGAGACGTGCTA	-0.00985
GACGGACTCCTTCTCCTGACGTGCTAG	0.619

Sample 3
Target: Phosphate system positive regulatory protein PHO4, full length, GST-tagged (PHO4, Saccharomyces cerevisiae, UniProt P07270, residues 1-312)
Technique: competition protein-binding microarray
Molecule type: double-stranded DNA, one strand shown
Matrix: in vitro
Tested at: 2 µM
Setting: whole 60-bp probe, lowest competitor level
Added: Cbf1 competitor, 0.05 µM
Reading: higher = stronger binding
Constant ends, left off below: … GTCTTGATTCGCTTGACGCTGCTG
Target sequence (chain): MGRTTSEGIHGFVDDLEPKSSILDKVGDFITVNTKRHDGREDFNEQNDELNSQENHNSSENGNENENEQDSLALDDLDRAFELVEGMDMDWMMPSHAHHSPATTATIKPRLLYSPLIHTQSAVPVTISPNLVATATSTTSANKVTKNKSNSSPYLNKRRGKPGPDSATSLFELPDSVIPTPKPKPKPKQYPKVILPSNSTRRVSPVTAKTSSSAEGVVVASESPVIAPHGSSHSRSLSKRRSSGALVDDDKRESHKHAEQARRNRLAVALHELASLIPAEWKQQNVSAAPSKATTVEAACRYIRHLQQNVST
Strand	fluorescence intensity
TCATATGTAGATAATAAACCTGCTATAAAACTGTCT	3940 a.u.
CAGGCTGGTGCGCAGCACATGGCCGGGCTCCGGGTG	10300 a.u.
AAATTACTAAGTTGTTCCGTGGGTGACGCCGTATGA	5060 a.u.
AAATTACTAAGTTGGTGGGTGGGTGACGCCGTATGA	4430 a.u.
TGCGCAACAACTTTTCACGTGGCGTTATGTCTAGAA	13300 a.u.
GTCCACACATTGTTCCACGTGTAGCTTACCCATGTA	15700 a.u.
CTTTCCCGATCTTGTCACCCAACTTTAGCACATTTG	3920 a.u.
CTTTCCCGATCTTCACACGTGTTTTTAGCACATTTG	17100 a.u.
CATACCCAACCTTGCAAGGTGGGTGAAGATATTTGT	3880 a.u.
CTAACGAAGGTTTGTCACGTCACTTACAAGCCAAGT	4300 a.u.
CGTCCTAGTGATTGTCACGGCACTTCCATGAGGAAG	4760 a.u.
ATTTGAAAAATTGGCAATGTGATATTCGGTTAAGGA	5440 a.u.
CTAACGAAGGTTTGTCACACCACTTACAAGCCAAGT	4350 a.u.
CTCCTCCGCGCTTTCCTCGTGCGCCTGCAGCCCTTG	11100 a.u.
CGAAGTTTGCGGCGTCACATGATAAAATTCCATTAT	6380 a.u.
TTGGATCTGCAAAATCACATGATTGCCCCAGTACTT	5180 a.u.
GATGAACTGAAAAGGCACATGAGAACGCATACAGGG	7210 a.u.
CGTCCTAGTGATTGTCACTATACTTCCATGAGGAAG	4090 a.u.
CTTCTGTAAATTTGATCGGTGGGTGGACGCGCCCCG	3820 a.u.
CCATCTGCAGGACATCACATGCAAGCACTTGAAGCT	8220 a.u.
CGGGGTTAAGTTTGGGCGGTGGGTGGCTTGCAGCAG	4910 a.u.
TGCTGAAACAACTGGCACGCAAGGTTTTTTAGCAGC	6000 a.u.
TGCGCAACAACTTGGTGAGTGGGTGTATGTCTAGAA	4940 a.u.

Sample 4
Target: Histone acetyltransferase KAT6A, both winged helices, GST fusion (KAT6A, Homo sapiens, UniProt Q92794, residues 1-181)
Technique: protein binding microarray
Molecule type: double-stranded DNA, one strand shown
Matrix: in vitro
Tested at: not given
Setting: 8-mer, flanks averaged, mean of 2 arrays, mostly near background
Reference: not given
Reading: higher = stronger binding
Residues (chain): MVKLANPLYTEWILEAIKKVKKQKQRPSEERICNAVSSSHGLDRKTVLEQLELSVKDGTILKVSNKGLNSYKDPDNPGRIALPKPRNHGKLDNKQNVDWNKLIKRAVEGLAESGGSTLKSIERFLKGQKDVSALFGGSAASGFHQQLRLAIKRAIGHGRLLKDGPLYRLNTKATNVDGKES
Strand	E-score
CCAGCAAG	-0.204
AATGTCAG	-0.135
AAACAGGG	-0.179
TACCGTGA	0.11
ATATATTG	-0.127
ACCAGCGG	0.235
AGAGATTC	-0.133
TAGTTGAA	-0.0796
GAGGAACC	0.00736
TAAGAAGA	0.0319
CGCCCATA	0.0892
ACAGTTTC	-0.126
GGACTAAC	-0.0411
ATGTTCGG	0.0195
CCTCGTCG	-0.0166
AAAAGTGT	-0.0296
GGACGTAC	0.00287
TGCTCCAA	-0.282
ATGCTATG	-0.193
AGCCGGTA	0.187
AACGAAGT	-0.198
TACCGGAA	0.12
